{"data": "Results gathered from unrelated publications", "note": "Every numbered part comes from another study and shows a few of its results, in no order. “And” joins repeats or separate records; there may be more than shown.", "UniProt P42336, sequence (whole entry, unmodified, looked up)": "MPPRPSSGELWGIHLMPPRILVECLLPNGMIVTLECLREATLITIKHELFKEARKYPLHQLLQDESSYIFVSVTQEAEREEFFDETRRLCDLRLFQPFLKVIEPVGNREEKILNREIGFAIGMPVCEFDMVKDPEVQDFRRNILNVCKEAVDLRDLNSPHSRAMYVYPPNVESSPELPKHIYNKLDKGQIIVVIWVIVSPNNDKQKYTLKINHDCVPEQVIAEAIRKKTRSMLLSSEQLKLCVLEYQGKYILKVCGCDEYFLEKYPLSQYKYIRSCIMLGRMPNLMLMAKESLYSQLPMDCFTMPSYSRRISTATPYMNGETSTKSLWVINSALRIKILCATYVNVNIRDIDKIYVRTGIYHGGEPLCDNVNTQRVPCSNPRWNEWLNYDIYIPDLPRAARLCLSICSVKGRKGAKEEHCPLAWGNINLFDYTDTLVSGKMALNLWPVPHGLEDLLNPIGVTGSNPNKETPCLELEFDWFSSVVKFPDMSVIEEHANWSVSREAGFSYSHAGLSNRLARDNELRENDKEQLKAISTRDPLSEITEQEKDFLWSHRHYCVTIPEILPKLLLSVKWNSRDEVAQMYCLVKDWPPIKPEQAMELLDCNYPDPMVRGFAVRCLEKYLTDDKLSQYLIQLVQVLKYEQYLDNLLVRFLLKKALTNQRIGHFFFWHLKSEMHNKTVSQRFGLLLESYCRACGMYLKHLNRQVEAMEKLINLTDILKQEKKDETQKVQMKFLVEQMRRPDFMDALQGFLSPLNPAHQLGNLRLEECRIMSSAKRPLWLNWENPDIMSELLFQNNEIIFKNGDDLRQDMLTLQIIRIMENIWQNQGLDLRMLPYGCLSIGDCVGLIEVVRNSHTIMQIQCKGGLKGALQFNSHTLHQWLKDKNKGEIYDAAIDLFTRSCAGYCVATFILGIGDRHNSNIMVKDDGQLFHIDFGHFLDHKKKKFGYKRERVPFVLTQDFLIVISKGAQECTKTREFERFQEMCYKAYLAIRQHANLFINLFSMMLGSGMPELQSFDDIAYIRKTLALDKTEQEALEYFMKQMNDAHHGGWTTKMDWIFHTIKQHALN", "UniProt Q9BYT3, sequence (whole entry, looked up)": "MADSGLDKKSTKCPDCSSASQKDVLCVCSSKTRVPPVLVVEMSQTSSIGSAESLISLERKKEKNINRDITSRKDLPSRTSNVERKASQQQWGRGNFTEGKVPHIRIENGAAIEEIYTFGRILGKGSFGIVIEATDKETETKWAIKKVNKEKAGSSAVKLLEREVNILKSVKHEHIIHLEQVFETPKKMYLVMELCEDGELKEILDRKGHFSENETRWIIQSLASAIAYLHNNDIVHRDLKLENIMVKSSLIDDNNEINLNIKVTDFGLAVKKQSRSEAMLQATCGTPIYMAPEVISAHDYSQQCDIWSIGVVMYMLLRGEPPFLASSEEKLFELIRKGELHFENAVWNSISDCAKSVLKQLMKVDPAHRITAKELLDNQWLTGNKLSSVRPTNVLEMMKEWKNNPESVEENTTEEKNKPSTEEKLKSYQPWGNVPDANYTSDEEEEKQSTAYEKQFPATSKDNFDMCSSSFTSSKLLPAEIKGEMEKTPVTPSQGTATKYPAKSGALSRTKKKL", "UniProt O75385, sequence (whole entry, looked up)": "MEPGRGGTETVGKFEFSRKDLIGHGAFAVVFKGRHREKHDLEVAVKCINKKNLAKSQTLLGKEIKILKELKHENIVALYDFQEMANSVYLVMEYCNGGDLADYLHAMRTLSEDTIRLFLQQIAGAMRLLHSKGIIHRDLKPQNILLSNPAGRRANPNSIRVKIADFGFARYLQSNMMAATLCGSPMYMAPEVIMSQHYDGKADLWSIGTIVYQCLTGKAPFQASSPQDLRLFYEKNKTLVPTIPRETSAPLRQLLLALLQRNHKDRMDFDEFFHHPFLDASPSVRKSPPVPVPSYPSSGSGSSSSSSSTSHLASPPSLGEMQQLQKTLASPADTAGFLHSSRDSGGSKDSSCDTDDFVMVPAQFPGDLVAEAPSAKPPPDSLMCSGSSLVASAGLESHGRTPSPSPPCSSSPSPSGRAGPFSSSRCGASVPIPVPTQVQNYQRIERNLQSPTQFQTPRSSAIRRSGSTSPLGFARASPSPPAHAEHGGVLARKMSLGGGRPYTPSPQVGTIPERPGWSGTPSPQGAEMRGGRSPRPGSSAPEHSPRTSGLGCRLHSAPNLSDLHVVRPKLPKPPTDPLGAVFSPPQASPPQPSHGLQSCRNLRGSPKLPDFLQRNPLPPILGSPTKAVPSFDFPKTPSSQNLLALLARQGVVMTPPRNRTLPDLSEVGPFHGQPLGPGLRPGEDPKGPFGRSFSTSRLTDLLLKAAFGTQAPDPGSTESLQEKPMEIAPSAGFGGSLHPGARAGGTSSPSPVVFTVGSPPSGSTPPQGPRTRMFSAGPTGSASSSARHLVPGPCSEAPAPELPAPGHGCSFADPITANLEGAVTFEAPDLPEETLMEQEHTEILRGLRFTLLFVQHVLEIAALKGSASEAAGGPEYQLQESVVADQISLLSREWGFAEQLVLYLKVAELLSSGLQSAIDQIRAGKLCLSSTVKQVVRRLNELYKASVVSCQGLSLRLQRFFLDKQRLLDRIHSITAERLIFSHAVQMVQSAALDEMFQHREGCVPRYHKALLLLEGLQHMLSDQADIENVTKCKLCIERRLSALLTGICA", "UniProt P61075, sequence (whole entry, looked up)": "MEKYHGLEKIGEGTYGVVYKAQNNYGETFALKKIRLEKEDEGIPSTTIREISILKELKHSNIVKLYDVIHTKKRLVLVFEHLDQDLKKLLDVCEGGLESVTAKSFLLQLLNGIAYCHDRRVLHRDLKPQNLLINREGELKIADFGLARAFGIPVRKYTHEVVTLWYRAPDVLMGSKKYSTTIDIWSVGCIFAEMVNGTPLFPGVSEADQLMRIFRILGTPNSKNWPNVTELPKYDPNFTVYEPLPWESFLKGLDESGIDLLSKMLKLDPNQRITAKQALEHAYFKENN"}
{"data": "Block 1", "target": "Dual specificity mitogen-activated protein kinase kinase 6 (MAP2K6, Homo sapiens, UniProt P52564)", "observed": "enzyme activity", "action": "inhibitor", "tested at": "0.5 µM", "reference": "control", "Residues (P52564 1-334)": "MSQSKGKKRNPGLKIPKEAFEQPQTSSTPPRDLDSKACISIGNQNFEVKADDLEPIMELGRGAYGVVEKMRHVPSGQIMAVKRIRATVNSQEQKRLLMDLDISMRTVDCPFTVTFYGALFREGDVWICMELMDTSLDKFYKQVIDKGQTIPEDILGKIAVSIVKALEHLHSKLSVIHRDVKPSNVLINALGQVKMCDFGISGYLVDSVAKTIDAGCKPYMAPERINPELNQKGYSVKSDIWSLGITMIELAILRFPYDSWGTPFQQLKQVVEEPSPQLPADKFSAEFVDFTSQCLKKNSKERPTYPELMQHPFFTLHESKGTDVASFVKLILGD"}
{"Compound": "O=C1NC(=O)C(c2cn(CCCn3ccnc3)c3ccccc23)=C1Nc1ccccc1", "remaining activity [%]": 103}
{"Compound": "O=S(=O)(c1cccc2cnccc12)N1CCCNCC1", "remaining activity [%]": 95.6}
{"Compound": "Cn1c2ccccc2c2c3c(c4c5ccccc5n(CCC#N)c4c21)CNC3=O", "remaining activity [%]": 21.1}
{"Compound": "O=C(CCCc1ccc(-c2ccccc2F)cc1)Nc1ccc(O)cc1", "remaining activity [%]": 97.5}
{"Compound": "O=C(O)c1ccc2c3c1cccc3c(=O)n1c3ccccc3nc21", "remaining activity [%]": 103}
{"Compound": "Nc1ncnc2n[nH]c(Nc3ccc(F)cc3)c12", "remaining activity [%]": 87.6}
{"Compound": "Cn1sc(=O)n(Cc2ccccc2)c1=O", "remaining activity [%]": 94.9}
{"Compound": "Nc1ccc2ncnc(NCCc3ccc(Oc4ccccc4)cc3)c2c1", "remaining activity [%]": 96.6}
{"Compound": "CCOC(=O)c1c(C)[nH]c(/C=C2\\C(=O)Nc3ccccc32)c1C", "remaining activity [%]": 96.5}
{"Compound": "Nc1[nH]nc2nc3ccccc3nc12", "remaining activity [%]": 100}
{"Compound": "Cc1cccc(-c2[nH]c(C(C)(C)C)nc2-c2ccc3c(c2)OCO3)n1", "remaining activity [%]": 105}
{"Compound": "COc1cc2nccc(Oc3ccc(NC(=S)NC(=O)c4ccccc4C)cc3)c2cc1OC", "remaining activity [%]": 94.9}
{"Compound": "COc1ccc(OC)c2c(=S)c3ccccc3[nH]c12", "remaining activity [%]": 89.9}
{"Compound": "CNC(=O)c1cc(Oc2ccc(NC(=O)Nc3ccc(Cl)c(C(F)(F)F)c3)cc2)ccn1", "remaining activity [%]": 96.9}
{"data": "Block 2", "Compound": "CCCCCCCCCCCCCCCCOP(=O)([O-])OCC[N+](C)(C)C"}
{"target or system": "Leishmania donovani", "observed": "parasite growth", "method": "imaging", "cells": "THP-1", "tested at": "20 nM", "notes": "intracellular, amastigote", "inhibition": "3% and 2% and 4% and 6%"}
{"target or system": "THP-1", "observed": "host cell growth", "tested at": "10 µM", "inhibition": "24% and 20% and 35% and 33%"}
{"target or system": "Leishmania donovani", "observed": "parasite growth", "method": "imaging", "cells": "THP-1", "tested at": "4 nM", "notes": "intracellular, amastigote", "inhibition": "6% and -4% and 2% and 1%"}
{"target or system": "THP-1", "observed": "host cell growth", "tested at": "0.4 µM", "inhibition": "-2.62% and -0.63% and -0.4% and -0.52% and 2.34% and -0.18%"}
{"data": "Block 3", "Structure (SMILES)": "Cc1ccc(NC(=O)c2ccnc(C(F)(F)F)c2)cc1-c1cc(OCCO)nc(N2CCOCC2)c1", "observed": "binding", "tested at": "1 µM"}
{"target": "ULK1 (Homo sapiens, UniProt O75385)", "remaining binding": "85%"}
{"target": "STK33 (Homo sapiens, UniProt Q9BYT3)", "method": "competition with immobilised ligand", "remaining binding": "97%"}
{"target": "MYLK (Homo sapiens, UniProt Q15746)", "remaining binding": "100%"}
{"target": "PIK3CA (Homo sapiens, UniProt P42336, M1043I)", "remaining binding": "94%"}
{"target": "CRK2 (Plasmodium falciparum, UniProt P61075)", "remaining binding": "93%"}
{"data": "Block 4", "target": "5-hydroxytryptamine receptor 7 (HTR7, Homo sapiens, UniProt P34969)", "observed": "ligand displacement", "tested at": "10 µM", "UniProt P34969, sequence (whole entry, looked up)": "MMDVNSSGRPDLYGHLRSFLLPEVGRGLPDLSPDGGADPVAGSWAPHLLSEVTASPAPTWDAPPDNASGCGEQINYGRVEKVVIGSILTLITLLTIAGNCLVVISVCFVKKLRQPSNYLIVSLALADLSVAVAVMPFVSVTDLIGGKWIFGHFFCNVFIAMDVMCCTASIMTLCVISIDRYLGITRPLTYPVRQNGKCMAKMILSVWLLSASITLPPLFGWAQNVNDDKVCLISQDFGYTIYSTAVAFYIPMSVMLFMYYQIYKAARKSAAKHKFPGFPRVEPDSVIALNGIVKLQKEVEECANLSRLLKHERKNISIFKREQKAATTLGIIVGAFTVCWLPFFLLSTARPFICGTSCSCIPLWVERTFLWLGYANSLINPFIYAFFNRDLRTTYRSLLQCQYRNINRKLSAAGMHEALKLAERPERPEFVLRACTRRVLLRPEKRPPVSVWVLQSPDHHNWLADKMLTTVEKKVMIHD"}
{"Compound": "C[C@H](c1ccc(F)cc1)N(Cc1cccc(C(=O)O)c1)C(=O)c1cnc2ccccc2c1", "inhibition": "-2.7%"}
{"Compound": "O=C(NCCCC1CCCCC1)c1ccc(CNC(=O)c2cnn(-c3ccccc3)c2C(F)(F)F)cc1", "inhibition": "25.8%"}
{"Compound": "COc1cc(C(=O)O)ncc1C#Cc1ccccc1NS(=O)(=O)c1cccc2c(N(C)C)ccnc12", "inhibition": "-2.53%"}
{"Compound": "Nc1cnc(N2CCc3cc(S(=O)(=O)Nc4c(F)cc(Cl)cc4F)cc(N4CCCC4=O)c32)nc1", "inhibition": "0.94%"}
{"Compound": "CC[C@H](CC(=O)O)n1c(=O)c2ncccc2n(Cc2cn(C)c3cc(C)cc(C)c23)c1=O", "inhibition": "27.2%"}
{"note": "Repeated from above (block 3):"}
{"target": "STK33 (Homo sapiens, UniProt Q9BYT3)", "method": "competition with immobilised ligand", "remaining binding": "97%"}
{"target": "MYLK (Homo sapiens, UniProt Q15746)", "remaining binding": "100%"}
